Assay results pooled from the literature.
Each line is one published result; not all experiments were run side by side. “And” joins repeats or separate records; there may be more than shown. ± gives the spread as reported.
CASP8: Caspase-8 (CASP8, Homo sapiens, UniProt Q14790)
Sequence of UniProt Q14790 (whole entry, looked up): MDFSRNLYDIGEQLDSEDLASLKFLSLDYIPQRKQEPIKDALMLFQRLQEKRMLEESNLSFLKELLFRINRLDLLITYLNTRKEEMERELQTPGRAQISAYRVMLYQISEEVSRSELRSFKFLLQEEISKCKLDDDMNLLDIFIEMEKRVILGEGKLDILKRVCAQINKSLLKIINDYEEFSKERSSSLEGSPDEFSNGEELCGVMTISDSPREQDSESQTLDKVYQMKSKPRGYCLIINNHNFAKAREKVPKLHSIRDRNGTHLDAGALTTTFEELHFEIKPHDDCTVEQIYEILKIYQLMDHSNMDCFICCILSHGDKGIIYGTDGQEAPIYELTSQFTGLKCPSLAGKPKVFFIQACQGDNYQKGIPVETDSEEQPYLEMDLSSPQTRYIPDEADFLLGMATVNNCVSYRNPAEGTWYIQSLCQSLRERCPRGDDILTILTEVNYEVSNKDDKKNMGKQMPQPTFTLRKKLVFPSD
MAPT: Microtubule-associated protein tau (MAPT, Homo sapiens, UniProt P10636)
CASP10: Caspase-10 (CASP10, Homo sapiens, UniProt Q92851)
Sequence of UniProt Q92851 (whole entry, looked up): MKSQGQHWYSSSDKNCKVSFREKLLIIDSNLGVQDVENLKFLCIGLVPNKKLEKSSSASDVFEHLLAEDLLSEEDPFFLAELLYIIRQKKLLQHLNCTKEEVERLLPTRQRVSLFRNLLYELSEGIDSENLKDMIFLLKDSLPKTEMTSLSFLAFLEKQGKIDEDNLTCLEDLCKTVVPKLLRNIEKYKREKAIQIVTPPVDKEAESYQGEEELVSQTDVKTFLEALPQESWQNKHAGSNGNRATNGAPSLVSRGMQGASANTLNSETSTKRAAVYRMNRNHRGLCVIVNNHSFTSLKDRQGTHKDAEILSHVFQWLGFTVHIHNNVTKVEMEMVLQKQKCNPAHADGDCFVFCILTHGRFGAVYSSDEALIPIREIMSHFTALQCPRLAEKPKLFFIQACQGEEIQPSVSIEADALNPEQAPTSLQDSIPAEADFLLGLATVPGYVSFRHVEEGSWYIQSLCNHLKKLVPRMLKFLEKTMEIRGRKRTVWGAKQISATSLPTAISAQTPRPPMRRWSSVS
HSD3B1: 3 beta-hydroxysteroid dehydrogenase/Delta 5-->4-isomerase type 1 (HSD3B1, Homo sapiens, UniProt P14060)
Sequence of UniProt P45983 (whole entry, looked up): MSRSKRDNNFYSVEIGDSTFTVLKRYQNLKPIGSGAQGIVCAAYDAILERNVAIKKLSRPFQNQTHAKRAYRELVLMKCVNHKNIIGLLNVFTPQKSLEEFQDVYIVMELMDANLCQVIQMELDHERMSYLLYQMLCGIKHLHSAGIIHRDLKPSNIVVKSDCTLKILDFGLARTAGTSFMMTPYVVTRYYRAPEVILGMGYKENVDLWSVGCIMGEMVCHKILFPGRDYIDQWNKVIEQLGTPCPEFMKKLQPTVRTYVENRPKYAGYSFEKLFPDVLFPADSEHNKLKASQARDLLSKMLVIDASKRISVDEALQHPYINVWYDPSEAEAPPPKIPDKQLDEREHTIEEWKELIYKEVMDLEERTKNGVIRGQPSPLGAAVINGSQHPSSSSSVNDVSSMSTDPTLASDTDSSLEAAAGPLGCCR
Sequence of UniProt P35821 (whole entry, looked up): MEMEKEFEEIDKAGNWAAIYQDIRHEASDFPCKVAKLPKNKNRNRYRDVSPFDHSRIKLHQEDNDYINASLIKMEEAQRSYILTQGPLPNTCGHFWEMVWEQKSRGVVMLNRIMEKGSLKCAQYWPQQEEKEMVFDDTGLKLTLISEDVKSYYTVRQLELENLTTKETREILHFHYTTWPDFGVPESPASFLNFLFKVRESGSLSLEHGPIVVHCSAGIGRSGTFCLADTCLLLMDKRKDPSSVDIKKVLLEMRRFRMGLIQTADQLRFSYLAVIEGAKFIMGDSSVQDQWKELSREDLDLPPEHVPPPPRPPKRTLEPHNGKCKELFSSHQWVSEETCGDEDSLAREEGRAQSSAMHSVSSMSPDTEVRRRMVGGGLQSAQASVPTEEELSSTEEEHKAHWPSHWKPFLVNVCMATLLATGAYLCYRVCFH
Sequence of UniProt P14060 (whole entry, looked up): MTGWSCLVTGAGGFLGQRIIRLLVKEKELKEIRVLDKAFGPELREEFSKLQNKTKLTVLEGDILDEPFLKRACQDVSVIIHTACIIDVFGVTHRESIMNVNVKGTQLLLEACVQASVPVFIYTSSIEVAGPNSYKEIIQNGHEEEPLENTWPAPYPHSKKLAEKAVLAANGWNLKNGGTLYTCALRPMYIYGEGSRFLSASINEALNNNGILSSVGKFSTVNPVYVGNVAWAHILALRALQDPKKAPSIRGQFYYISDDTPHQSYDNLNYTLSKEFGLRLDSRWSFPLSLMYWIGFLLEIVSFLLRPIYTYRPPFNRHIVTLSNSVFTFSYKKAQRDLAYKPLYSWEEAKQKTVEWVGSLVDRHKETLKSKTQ
Sequence of UniProt P25999 (whole entry, looked up): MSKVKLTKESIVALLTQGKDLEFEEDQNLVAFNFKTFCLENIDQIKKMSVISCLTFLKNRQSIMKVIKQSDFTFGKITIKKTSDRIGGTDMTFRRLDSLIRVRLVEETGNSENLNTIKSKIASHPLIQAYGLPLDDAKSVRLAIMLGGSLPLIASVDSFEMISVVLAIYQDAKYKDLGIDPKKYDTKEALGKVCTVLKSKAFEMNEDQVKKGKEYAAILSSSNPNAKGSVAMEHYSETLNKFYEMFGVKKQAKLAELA
Sequence of UniProt Q9NPI1 (whole entry, looked up): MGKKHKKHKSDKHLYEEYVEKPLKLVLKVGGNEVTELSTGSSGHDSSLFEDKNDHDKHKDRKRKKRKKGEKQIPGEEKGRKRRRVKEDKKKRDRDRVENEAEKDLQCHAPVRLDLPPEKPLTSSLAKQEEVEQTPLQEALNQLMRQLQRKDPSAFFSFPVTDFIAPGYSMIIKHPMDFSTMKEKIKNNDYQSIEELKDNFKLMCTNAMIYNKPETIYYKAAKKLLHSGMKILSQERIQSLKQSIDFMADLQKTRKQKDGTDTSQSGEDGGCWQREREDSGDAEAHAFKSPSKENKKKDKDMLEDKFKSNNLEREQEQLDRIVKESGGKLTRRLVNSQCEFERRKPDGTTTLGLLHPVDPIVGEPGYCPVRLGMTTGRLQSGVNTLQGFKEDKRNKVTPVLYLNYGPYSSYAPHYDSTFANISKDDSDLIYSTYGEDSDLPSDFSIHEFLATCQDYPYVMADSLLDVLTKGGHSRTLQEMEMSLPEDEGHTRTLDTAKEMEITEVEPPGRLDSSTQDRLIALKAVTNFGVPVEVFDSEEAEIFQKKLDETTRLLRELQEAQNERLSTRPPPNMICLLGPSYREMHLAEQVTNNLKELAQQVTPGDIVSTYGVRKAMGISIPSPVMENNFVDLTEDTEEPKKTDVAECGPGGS
Sequence of UniProt Q13158 (whole entry, looked up): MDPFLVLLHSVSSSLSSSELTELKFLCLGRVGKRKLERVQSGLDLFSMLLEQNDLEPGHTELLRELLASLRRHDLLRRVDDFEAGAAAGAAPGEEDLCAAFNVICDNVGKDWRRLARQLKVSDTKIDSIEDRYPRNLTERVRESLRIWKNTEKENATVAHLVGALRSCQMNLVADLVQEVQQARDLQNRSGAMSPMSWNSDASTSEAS
Sequence of UniProt O75494 (whole entry, looked up): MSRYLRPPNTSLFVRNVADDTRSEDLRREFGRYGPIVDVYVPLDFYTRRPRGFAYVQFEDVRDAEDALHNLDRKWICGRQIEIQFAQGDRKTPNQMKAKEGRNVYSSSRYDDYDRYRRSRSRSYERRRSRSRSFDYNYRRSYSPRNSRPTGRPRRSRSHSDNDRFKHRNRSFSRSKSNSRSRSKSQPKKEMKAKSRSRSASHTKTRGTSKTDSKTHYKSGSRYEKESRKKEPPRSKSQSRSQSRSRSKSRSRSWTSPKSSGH
Sequence of UniProt Q9HB29 (whole entry, looked up): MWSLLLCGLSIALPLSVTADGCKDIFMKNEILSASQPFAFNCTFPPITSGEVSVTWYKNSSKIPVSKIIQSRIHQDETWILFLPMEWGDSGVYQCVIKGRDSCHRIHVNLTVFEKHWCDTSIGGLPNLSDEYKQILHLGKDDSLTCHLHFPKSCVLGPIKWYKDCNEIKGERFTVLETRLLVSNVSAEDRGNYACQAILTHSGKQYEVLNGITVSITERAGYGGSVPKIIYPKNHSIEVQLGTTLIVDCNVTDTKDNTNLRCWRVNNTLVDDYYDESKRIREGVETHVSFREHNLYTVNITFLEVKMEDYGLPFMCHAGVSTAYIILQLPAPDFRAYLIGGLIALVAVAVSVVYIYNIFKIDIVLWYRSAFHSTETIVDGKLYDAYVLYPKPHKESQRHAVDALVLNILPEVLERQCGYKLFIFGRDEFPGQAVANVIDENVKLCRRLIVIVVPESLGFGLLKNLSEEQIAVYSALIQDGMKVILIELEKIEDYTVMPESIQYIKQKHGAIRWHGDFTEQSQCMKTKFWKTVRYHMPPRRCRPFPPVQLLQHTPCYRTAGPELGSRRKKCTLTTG
Sequence of UniProt Q96C86 (whole entry, looked up): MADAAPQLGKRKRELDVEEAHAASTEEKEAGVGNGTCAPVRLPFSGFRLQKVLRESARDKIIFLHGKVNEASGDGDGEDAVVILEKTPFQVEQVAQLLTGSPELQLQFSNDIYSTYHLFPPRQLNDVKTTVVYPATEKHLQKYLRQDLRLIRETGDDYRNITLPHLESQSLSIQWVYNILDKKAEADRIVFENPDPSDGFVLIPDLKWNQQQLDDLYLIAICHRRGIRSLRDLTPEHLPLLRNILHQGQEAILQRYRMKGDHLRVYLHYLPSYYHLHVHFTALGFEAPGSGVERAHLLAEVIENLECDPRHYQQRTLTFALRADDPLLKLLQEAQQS
Sequence of UniProt Q9BY41 (whole entry, unmodified, looked up): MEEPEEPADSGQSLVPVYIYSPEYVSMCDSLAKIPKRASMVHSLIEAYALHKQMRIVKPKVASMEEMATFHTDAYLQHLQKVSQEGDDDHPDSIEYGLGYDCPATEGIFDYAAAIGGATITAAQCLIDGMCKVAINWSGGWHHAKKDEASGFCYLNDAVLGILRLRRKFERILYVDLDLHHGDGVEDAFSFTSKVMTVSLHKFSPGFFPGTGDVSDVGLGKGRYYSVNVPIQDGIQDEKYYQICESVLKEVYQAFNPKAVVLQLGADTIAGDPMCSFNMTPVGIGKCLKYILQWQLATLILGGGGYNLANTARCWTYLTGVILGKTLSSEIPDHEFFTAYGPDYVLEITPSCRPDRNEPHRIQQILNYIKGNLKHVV

CC(=O)N[C@@H](Cc1ccc(O)cc1)C(=O)N1CSC[C@H]1C(=O)N[C@@H](C)C(=O)N[C@@H](CC(=O)O)C(=O)COC(=O)c1c(C)cccc1C  kinact/KI (CASP8; enzyme activity, inhibitor): 28000 M⁻¹ s⁻¹
C[n+]1cn([C@@H]2O[C@H](COP(=O)([O-])OP(=O)(O)CP(=O)(O)O)[C@@H](O)[C@H]2O)c2nc(N)nc(O)c21  hydrolysis (DCPS (Homo sapiens, UniProt Q96C86); substrate, HPLC; concentration not given, 15 min): 0%
CCCCCCCCCCCCC/C=C/C=O  isoTOP-ABPP competition ratio (F-box only protein 30 (FBXO30, Homo sapiens, UniProt Q8TB52); competitive isoTOP-ABPP; Ramos soluble proteome; 100 µM, 60 min, with: iodoacetamide probe; reference: DMSO over compound-treated, higher = stronger cysteine blockade): 1
CC(C)(C(=O)N1CCC(Nc2nc3c(c(=O)[nH]2)CCCC3)CC1)c1ccc(Cl)cc1  Hill slope (MRGPRD (Homo sapiens, UniProt Q8TDS7, Y245A); miniGq recruitment, agonist, BRET; HEK293T; Y245A mutant): 1.03
CN(C)CCCSC(=S)N1CCN(C(=O)/C=C/c2coc3ccccc3c2=O)CC1  normalised MST response (Nucleoprotein (N, Tomato spotted wilt virus, UniProt P25999); binding, microscale thermophoresis; 0.2441 µM; dose series): -0.00155
CC(C)[C@@H]1NC(=O)[C@H](Cc2ccccc2)NC(=O)CSC[C@@H](C(N)=O)NC(=O)[C@H](CCC(=O)O)NC(=O)[C@H](CO)NC(=O)[C@H](Cc2c[nH]c3cccc(Cl)c23)NC(=O)[C@H](C2CCCCC2)NC(=O)[C@H](C(C)C)NC(=O)[C@H](Cc2ccc(O)cc2)NC(=O)[C@H](CC(=O)O)NC(=O)[C@H](Cc2c[nH]c3ccccc23)NC(=O)[C@H](Cc2ccc(N)nc2)NC(=O)[C@H](Cc2c[nH]c3ccc(Cl)cc23)NC(=O)[C@H](CCC(=O)O)NC1=O  remaining activity (Interleukin-1 receptor-like 2 (IL1RL2, Homo sapiens, UniProt Q9HB29); reporter gene (SEAP), inhibitor, HEK-Blue IL-36R reporter; HEK-Blue IL-36R cells; 0.0017 µM, 6 h, with: IL-36β 0.01 ng/mL): 87.5%
CNC(=N)NCCC[C@H](NC(=O)[C@H](CC(C)C)NC(=O)NNC(=O)[C@H](Cc1ccccc1)NC(=O)[C@@H](NC(=O)[C@H](CC(N)=O)NC(=O)[C@@H]1C[C@@H](O)CN1C(=O)[C@@H](Cc1ccc(O)cc1)NC(C)=O)[C@@H](C)O)C(=O)N[C@@H](Cc1c[nH]c2ccccc12)C(N)=O  Emax (KiSS-1 receptor (KISS1R, Homo sapiens, UniProt Q969F8, Q122A); inositol phosphate, agonist; HEK293): 9.18%
Cc1ccc2oc(=O)cc(Cn3ccnc3)c2c1  inhibition of binding (ADRA1A (Homo sapiens, UniProt P35348); flow cytometry binding; COS-7; 500 µM, tracer 6.25 nM): 67.5 ± 2.68%
CC(=O)N[C@@H](Cc1ccccc1)C(=O)N[C@@H](CC(=O)O)C(=O)N[C@@H](CCC(=O)O)C(=O)N1CCC[C@H]1C(=O)N[C@@H](CC(=O)O)C(=O)COC(=O)c1c(C)cccc1C  kinact/KI (CASP8; enzyme activity, inhibitor): 1.51e+06 M⁻¹ s⁻¹
CC[C@H](C)[C@H](NC(=O)[C@@H](NC(=O)[C@H](CCCCN)NC(=O)[C@@H](NC(=O)CNC(=O)[C@@H](N)CCCNC(=N)N)[C@@H](C)O)C(C)C)C(=O)N[C@@H](CC(C)C)C(=O)N[C@@H](Cc1c[nH]cn1)C(=O)N[C@@H](CC(C)C)C(N)=O  aggregation half-time (MAPT; fibril formation, ThT fluorescence; 0.1-fold of tau, 37 °C, with: wild-type tau 10 µM, heparin; reference: untreated): 74 ± 10%
CC(=O)N[C@@H](Cc1ccc(O)cc1)C(=O)N[C@@H](CCCCN)C(=O)N[C@@H](C)C(=O)N[C@@H](CC(=O)O)C(=O)COC(=O)c1c(C)cccc1C  kinact/KI (CASP10; enzyme activity, inhibitor): 123000 M⁻¹ s⁻¹
CC1(C)C[C@@H](Nc2cccc(-c3sc(C(=O)O)c(OCC(=O)O)c3Cl)c2)CCN1S(=O)(=O)Cc1cccc(NC(=O)CN2CCC(c3ccc4c(c3)oc(=O)n4C3CCC(=O)NC3=O)CC2)c1 (stereo partly drawn)  remaining protein (Tyrosine-protein phosphatase non-receptor type 1 (Mus musculus, UniProt P35821); degrader, Western blot; B16-F10; 1 µM): 11.4% and 9.5%
C[Si](C)(C)C[C@H](CN)CC(=O)O  inhibition (SLC29A1 (Homo sapiens, UniProt Q99808); binding, radioligand binding; 250 µM, with: [3H]nitrobenzylthioinosine): 0%
CC(=O)N[C@@H](CC(C)C)C(=O)N[C@@H](CCC(=O)O)C(=O)N[C@@H](CCC1CCCCC1)C(=O)N[C@@H](CC(=O)O)C(=O)COC(=O)c1c(C)cccc1C  kinact/KI (CASP8; enzyme activity, inhibitor): 1.34e+06 M⁻¹ s⁻¹
O=c1c(-c2ccc(CO)cc2)coc2cc(O)ccc12  DHEA metabolism (HSD3B1; [3H]-DHEA conversion; LNCaP; 0.1 µM, normalized to protein, unit not given; reference: vehicle): 0.9
CC(=O)N[C@@H](Cc1c[nH]c2ccccc12)C(=O)N[C@@H](CCCNC(=N)N)C(=O)N[C@@H](CO)C(=O)N[C@@H](CC(=O)O)C(=O)COC(=O)c1c(C)cccc1C  kinact/KI (CASP10; enzyme activity, inhibitor): 28400 M⁻¹ s⁻¹
CN1CCN(Cc2ccc(NC(=O)c3cccc(C#Cc4cnc(N)c5ncccc45)c3)cc2C(F)(F)F)CC1  remaining binding (MAP3K4 (Homo sapiens, UniProt Q9Y6R4); cell-free assay, competition with immobilised ligand; 50 nM): 100%
C=CC(=O)N1CCCC(n2c(=O)c3ncccc3n(Cc3ccc(Oc4ccccc4)cc3)c2=O)C1 (stereo not drawn)  melting temperature shift (GSPT1 (Homo sapiens, UniProt P15170); thermal proteome profiling; 10 µM, destabilized proteins, unit not given; reference: vehicle): -3.52
CCn1cc(-c2cccc(C(F)(F)F)c2)c2sc(C(=N)NC3CCS(=O)(=O)CC3)cc2c1=O  ΔTm (KAT2A (Homo sapiens, UniProt Q92830)): 0.6 °C
Cn1cc(-c2cc(N3CCCCS3(=O)=O)ccc2N[C@H]2CC[C@H](C)CC2)c2cc[nH]c2c1=O (stereo in doubt)  remaining binding (BRD7 (Homo sapiens, UniProt Q9NPI1); binding, competition with immobilised ligand; 1 µM): 100%
Cc1cn(CC(=O)N(CC(=O)N[C@H]2CCC[C@@H]2N(CC(=O)N[C@H]2COC[C@@H]2N(CC(=O)N[C@H]2COC[C@@H]2N(CC(=O)N[C@H]2COC[C@@H]2N(CC(=O)NCCOCCOCC(N)=O)C(=O)Cn2cnc3c(N)ncnc32)C(=O)Cn2cc(C)c(=O)[nH]c2=O)C(=O)Cn2cnc3c(N)ncnc32)C(=O)Cn2cnc3c(=O)[nH]c(N)nc32)[C@H]2CCC[C@@H]2NC(=O)CN(C(=O)Cn2cnc3c(=O)[nH]c(N)nc32)[C@H]2CCC[C@@H]2NC(=O)CN(C(=O)Cn2cc(C)c(=O)[nH]c2=O)[C@H]2COC[C@@H]2NC(=O)CN(C(=O)Cn2cnc3c(N)ncnc32)[C@H]2COC[C@@H]2NC(=O)CN(C(=O)Cn2cnc3c(=O)[nH]c(N)nc32)[C@H]2COC[C@@H]2N)c(=O)[nH]c1=O  ΔS (complementary DNA; duplex formation, UV melting curve fit; PBS; 1 µM): -186 ± 5 cal/mol/K
Cc1cc(=O)oc2cc(NC(=O)CCCCCCCC(=O)NO)ccc12  TΔS (HDAC8 (Homo sapiens, UniProt Q9BY41); ITC; Tris buffer; pH 7.5): 4.1 kcal/mol
CC(=O)N[C@@H](CC(C)C)C(=O)N[C@@H](CCC(=O)O)C(=O)N[C@H](C(=O)N[C@@H](CC(=O)O)C(=O)COC(=O)c1c(C)cccc1C)[C@@H](C)O  kinact/KI (CASP8; enzyme activity, inhibitor): 1.48e+06 M⁻¹ s⁻¹
CCCCCC(O)/C=C/C=O (stereo not drawn)  probe labelling ratio (Serine/arginine-rich splicing factor 10 (SRSF10, Homo sapiens, UniProt O75494); acylphosphate-ATP probe SILAC-ABPP, measured: FUSIP1; ZAK-transfected HEK293T; 100 µM, with: acylphosphate-ATP probe; reference: DMSO over compound-treated): 0.63
Nc1ncc2c(n1)-c1c([nH]c3ccc(C4=CCOCC4)cc13)CCC2  remaining binding (Tyrosine-protein kinase ABL1, non-phosphorylated (ABL1, Homo sapiens, UniProt P00519, T315I); binding, competition with immobilised ligand; 1 µM): 96%
Nc1ncnc2c1ncn2C1OC(CN(CCCC2CNCc3c2ccc(Cl)c3Cl)CCC(N)C(=O)O)C(O)C1O (mixture of isomers)  ΔH-1 (PNMT (Homo sapiens, UniProt P11086); ITC; first site, without SAH): 5.7 ± 0.08 kcal/mol
O=C1c2sc(-c3ccc(N4CCC(F)C4)nc3F)nc2CCN1c1cccnc1 (stereo not drawn)  specific binding (TAR DNA-binding protein 43, aggregated (TARDBP, Homo sapiens, UniProt Q13148); saturation autoradiography; human, FTLD-TDP type A brain sections; 4.77 nM): 62.4 nM
C=C1C(=O)C2(C(=O)N3CCC(F)(F)CC3)CC(=O)CC1C2 (racemic)  kinact/KI (PTPN11 (Homo sapiens, UniProt Q06124); enzyme activity, covalent inhibitor; with: pNPP substrate): 33.8 M⁻¹ s⁻¹
CC(=O)N[C@@H](CC(=O)O)C(=O)N[C@@H](Cc1ccccc1)C(=O)N[C@H](C(=O)N[C@@H](CC(=O)O)C(=O)COC(=O)c1c(C)cccc1C)C(C)(C)C  kobs/[I] (CASP8; inhibitor; recombinant enzyme): 121000 M⁻¹ s⁻¹
COCCOc1cc(-c2coc3cc(O)ccc3c2=O)ccc1Cl  DHEA metabolism (HSD3B1; [3H]-DHEA conversion; LNCaP; 0.1 µM, normalized to protein, unit not given; reference: vehicle): 1.86
C#CCOC(=O)[C@]1(C)C=C(C(=O)OC(C)(C)C)C(=O)CC1  normalized kinase activity (MAPK8 (Homo sapiens, UniProt P45983); enzyme activity, D-SENSOR; 44.44 µM, single replicate): 0.585 and 0.639 and 0.628
Cc1cnc2nc1Nc1cccc(c1)COC/C=C/COCc1cc(ccc1OCCN1CCOCC1)N2  remaining binding (ABL1 (Homo sapiens, UniProt P00519, F317I); 0.1 µM; reference: DMSO control): 90%
CC(=O)N[C@@H](CCC(C)C)C(=O)N[C@@H](CCCC(=O)O)C(=O)N[C@@H](CO)C(=O)N[C@@H](CC(=O)O)C(=O)COC(=O)c1c(C)cccc1C  kinact/KI (CASP8; enzyme activity, inhibitor): 24000 M⁻¹ s⁻¹
Cc1cc(C)cc(COc2cc3c(cc2OCc2cc(C)cc(C)c2)C2CC(O)(Cc4cn(CCOCCOCCNC(=O)CCCCC5SCC6NC(=O)NC65)nn4)CC(C)N2CC3)c1 (stereo not drawn)  SILAC ratio (Cytochrome b5 type B (CYB5B, Homo sapiens, UniProt O43169); biotinylated probe pull-down, measured: CYB5B; 10 µM probe; reference: heavy over light): 2.83
CCCCCC=CC=C1C(=O)C=CC1CC=CCCCC(=O)O (stereo not drawn)  isoTOP-ABPP competition ratio (FAS-associated death domain protein (FADD, Homo sapiens, UniProt Q13158); competitive isoTOP-ABPP; Ramos soluble proteome; 100 µM, with: iodoacetamide probe; reference: DMSO over compound-treated, higher = stronger cysteine blockade): 1.7
CC[C@H](C)[C@H](NC(=O)[C@@H](NC(=O)[C@@H](NC(=O)[C@@H](NC(=O)[C@H](CCCCN)NC(=O)[C@H](CCC(=O)O)NC(=O)[C@H](C)N)C(C)C)C(C)C)C(C)C)C(=O)N[C@H](C(=O)N[C@@H](CCCCN)C(N)=O)[C@@H](C)O  aggregation half-time (MAPT; fibril formation, ThT fluorescence; 0.1-fold of tau, 37 °C, with: wild-type tau 10 µM, heparin; reference: untreated): 48 ± 18%

Excerpt of the above:
CC(=O)N[C@@H](CC(C)C)C(=O)N[C@@H](CCC(=O)O)C(=O)N[C@@H](CCC1CCCCC1)C(=O)N[C@@H](CC(=O)O)C(=O)COC(=O)c1c(C)cccc1C  kinact/KI (CASP8; enzyme activity, inhibitor): 1.34e+06 M⁻¹ s⁻¹
Cc1ccc2oc(=O)cc(Cn3ccnc3)c2c1  inhibition of binding (ADRA1A (Homo sapiens, UniProt P35348); flow cytometry binding; COS-7; 500 µM, tracer 6.25 nM): 67.5 ± 2.68%
C#CCOC(=O)[C@]1(C)C=C(C(=O)OC(C)(C)C)C(=O)CC1  normalized kinase activity (MAPK8 (Homo sapiens, UniProt P45983); enzyme activity, D-SENSOR; 44.44 µM, single replicate): 0.585 and 0.639 and 0.628
